Assay results pooled from the literature.
Protocols differ between the studies behind these lines.

FGDQELIRQGTDYKH  responding donors (human CD4 T cells; AIM; peptide): 8%
CC[C@H](C)[C@H](NC(=O)[C@H](CC(C)C)NC(=O)[C@H](Cc1c[nH]c2ccccc12)NC(=O)[C@H](CCC(N)=O)NC(=O)[C@@H](NC(=O)[C@H](Cc1ccccc1)NC(=O)[C@H](C)NC(=O)[C@H](CCCCNC(=O)COCCOCCNC(=O)COCCOCCNC(=O)CC[C@H](NC(=O)CCCCCCCCCCCCCCCCCCC(=O)O)C(=O)O)NC(=O)[C@H](CCC(N)=O)NC(=O)[C@H](C)NC(=O)[C@@H](NC(=O)[C@H](CCCCN)NC(=O)[C@H](CC(=O)O)NC(=O)[C@H](CC(C)C)NC(=O)C(C)(C)NC(=O)[C@@H](NC(=O)[C@H](CO)NC(=O)[C@H](Cc1ccc(O)cc1)NC(=O)[C@H](CC(=O)O)NC(=O)[C@H](CO)NC(=O)[C@@H](NC(=O)[C@H](Cc1ccccc1)NC(=O)[C@@H](NC(=O)CNC(=O)[C@H](CCC(=O)O)NC(=O)C(C)(C)NC(=O)[C@@H](N)Cc1ccc(O)cc1)[C@@H](C)O)[C@@H](C)O)[C@@H](C)CC)[C@@H](C)CC)C(C)C)C(=O)N[C@@H](C)C(=O)NCC(=O)NCC(=O)N1CCC[C@H]1C(=O)N[C@@H](CO)C(=O)N[C@@H](CO)C(=O)NCC(=O)N[C@@H](C)C(=O)N1CCC[C@H]1C(=O)N1CCC[C@H]1C(=O)N1CCC[C@H]1C(=O)N[C@@H](CO)C(N)=O  pulse rate change (patients with type 2 diabetes; 0.5 mg, day 29, proof of concept, LS mean; relative to: baseline): -0.4 bpm
FPLKLRGTA  frequency of responding donors (AIM; peptide, CD8+ T cells from PBMC, human donors; HLA-B*07:02 restricted, unit not given; relative to: positive over tested donors): 50
C[C@@H]1CC[C@]2(C(=O)O)CC[C@]3(C)C(=CC[C@@H]4[C@@]5(C)CC[C@H](O)C(C)(C)[C@@H]5CC[C@]43C)[C@@H]2[C@]1(C)O  inhibition (Replicase polyprotein 1ab, main protease (rep, Severe acute respiratory syndrome coronavirus 2, UniProt P0DTD1); reporter gene (Gaussia luciferase), inhibitor; 20 µM): -1.88%
Nc1ncnc2c([C@@H]3N[C@H](CO)[C@@H](O)[C@H]3O)c[nH]c12  infected cells (Marburg virus; viral replication, antibody staining; HeLa, Musoke; 25 µM, 12 h): 1.2%

For quick reference, copied from above:
Nc1ncnc2c([C@@H]3N[C@H](CO)[C@@H](O)[C@H]3O)c[nH]c12  infected cells (Marburg virus; viral replication, antibody staining; HeLa, Musoke; 25 µM, 12 h): 1.2%
